{"data": "Published values from different studies", "target": "Death-associated protein kinase 1 (DAPK1, Homo sapiens, UniProt P53355)", "note": "Protocols differ between the studies behind these lines. Values joined by “and” are separate records of one study, mostly repeats; a detail may differ.", "sequence of UniProt P53355 (whole entry, looked up)": "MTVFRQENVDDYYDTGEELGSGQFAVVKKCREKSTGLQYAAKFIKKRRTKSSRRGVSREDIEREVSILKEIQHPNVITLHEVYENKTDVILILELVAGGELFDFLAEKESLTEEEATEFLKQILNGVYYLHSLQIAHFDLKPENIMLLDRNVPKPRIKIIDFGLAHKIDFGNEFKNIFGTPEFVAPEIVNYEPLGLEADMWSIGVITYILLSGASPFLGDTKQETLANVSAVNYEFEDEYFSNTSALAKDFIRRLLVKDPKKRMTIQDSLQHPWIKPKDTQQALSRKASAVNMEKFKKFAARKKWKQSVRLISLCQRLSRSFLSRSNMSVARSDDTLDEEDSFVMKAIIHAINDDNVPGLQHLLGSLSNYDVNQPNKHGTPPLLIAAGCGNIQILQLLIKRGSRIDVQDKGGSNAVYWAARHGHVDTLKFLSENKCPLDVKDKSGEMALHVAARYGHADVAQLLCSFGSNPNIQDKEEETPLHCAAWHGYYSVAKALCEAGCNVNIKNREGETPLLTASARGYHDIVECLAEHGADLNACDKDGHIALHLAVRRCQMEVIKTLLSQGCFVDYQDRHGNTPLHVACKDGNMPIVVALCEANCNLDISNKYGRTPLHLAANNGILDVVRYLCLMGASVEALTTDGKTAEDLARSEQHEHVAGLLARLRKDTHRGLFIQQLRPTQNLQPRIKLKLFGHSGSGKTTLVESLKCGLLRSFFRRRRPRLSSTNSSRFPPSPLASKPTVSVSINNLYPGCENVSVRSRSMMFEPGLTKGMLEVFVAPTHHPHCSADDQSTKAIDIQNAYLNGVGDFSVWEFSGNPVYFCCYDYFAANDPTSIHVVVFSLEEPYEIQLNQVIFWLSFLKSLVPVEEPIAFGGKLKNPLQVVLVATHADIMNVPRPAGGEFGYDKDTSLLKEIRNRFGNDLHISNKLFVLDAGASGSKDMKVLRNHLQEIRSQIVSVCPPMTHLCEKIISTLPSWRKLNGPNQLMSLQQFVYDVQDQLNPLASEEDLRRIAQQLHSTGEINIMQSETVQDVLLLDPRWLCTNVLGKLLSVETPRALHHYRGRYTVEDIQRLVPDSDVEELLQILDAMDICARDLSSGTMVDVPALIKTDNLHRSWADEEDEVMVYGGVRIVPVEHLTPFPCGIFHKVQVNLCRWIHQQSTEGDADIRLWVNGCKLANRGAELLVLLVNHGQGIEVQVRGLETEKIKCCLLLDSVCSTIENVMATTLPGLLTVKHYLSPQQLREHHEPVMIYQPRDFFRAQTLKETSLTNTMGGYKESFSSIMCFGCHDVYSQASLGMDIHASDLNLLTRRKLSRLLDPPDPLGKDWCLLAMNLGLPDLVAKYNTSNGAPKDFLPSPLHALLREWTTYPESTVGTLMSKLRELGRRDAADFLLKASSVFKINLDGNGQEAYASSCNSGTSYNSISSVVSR"}
{"SMILES": "COc1c(OCCCN2CCOCC2)ccc2c1N=C(NC(=O)c1cnc(N)nc1)N1CCN=C21", "test": "kinase activity, inhibitor", "conditions": "1 µM", "scale": "relative to: untreated control", "endpoint": "remaining activity", "value": "77%"}
{"SMILES": "CN1CCN(Cc2ccc(-c3ccc(CO[C@H]4CCC[C@@H]4NC(=O)c4cc(-c5cnn(C)c5)cnc4N)cc3)cc2)CC1", "test": "enzyme activity, inhibitor", "conditions": "0.1 µM", "endpoint": "inhibition", "value": "-9%"}
{"SMILES": "NC(=O)[C@@H](O)C[C@H]1CCc2sc3ncnc(O[C@H]4CC[C@H](N5CCOCC5)CC4)c3c21", "test": "enzyme activity, inhibitor", "conditions": "10 µM", "endpoint": "inhibition", "value": "-3%"}
{"SMILES": "C=CC(=O)Nc1cccc(-c2cnc3[nH]cc(C(=O)NC(C)(C)C)c3n2)c1", "test": "kinase activity", "conditions": "0.1 µM", "endpoint": "inhibition", "value": "4% and 3%"}
{"SMILES": "Cc1cccc(O[C@H]2CCC[C@@H](C(C)CNCc3ccncc3)C2)c1 (relative stereo)", "test": "enzyme activity, inhibitor", "conditions": "10 µM", "endpoint": "inhibition", "value": "3%"}
{"SMILES": "Cc1cnc2nc1Nc1cccc(c1)COC/C=C/COCc1cc(ccc1OCCN1CCOCC1)N2", "test": "binding", "conditions": "0.1 µM", "endpoint": "remaining binding", "value": "80%"}
{"SMILES": "CCN1CCN(Cc2ccc(C(=O)Nc3ccc(C)c(NCc4cnc5[nH]ccc5c4OC)c3)cc2C(F)(F)F)CC1", "test": "binding, competition with immobilised ligand", "conditions": "1 µM", "endpoint": "remaining binding", "value": "82%"}
{"SMILES": "O=C=[N][Ru-4]123([n]4c5ccc(O)cc5c5c6c(c7cc(F)c[n+]1c7c54)C(=O)NC6=O)[S+]1CC[S+]2CC[S+]3CC1 (stereo not shown)", "test": "enzyme activity", "conditions": "100 nM, human enzyme, together with: 10 µM ATP", "scale": "relative to: untreated", "endpoint": "remaining activity", "value": "21%"}
{"SMILES": "O=C(Cc1ccc(OCc2ccccc2)cc1)NC1(C(=O)O)CCN(C(=O)c2ccc(-c3cccc(Cl)c3)cc2)CC1", "test": "enzyme activity, inhibitor", "conditions": "10 µM", "endpoint": "activity vs control", "value": "101%"}
{"SMILES": "Cc1nc2c(F)cc(-c3nc(Nc4ccc(CNC(=O)CCCCCCC(=O)NO)cc4)ncc3F)cc2n1C(C)C", "test": "enzyme activity, inhibitor", "conditions": "1 µM", "endpoint": "inhibition", "value": "50%"}
{"SMILES": "C=CC(=O)N1CCc2ccc(-n3c(=O)ccc4cnc5ccc(-c6cnn(C)c6)cc5c43)cc21", "test": "KINOMEscan", "conditions": "1 µM", "scale": "relative to: DMSO control", "endpoint": "remaining binding", "value": "66%"}
{"SMILES": "CCn1cc(C(=O)O)c(=O)c2c(N)c(F)c(NC3CCCCC3)cc21", "test": "kinase activity", "conditions": "0.1 µM, together with: ATP at Km", "endpoint": "inhibition", "value": "-31%"}
{"SMILES": "COCC12C(=O)NC3C4(C(OC)CC1O)C1CC5(O)C(OC)C(O)C(OC(C)=O)(C1C5OC(=O)c1ccccc1)C3(O)C(OC)C24 (stereo not shown)", "test": "kinase activity, inhibitor, ProQinase kinase profiling", "conditions": "25 µM", "scale": "relative to: control", "endpoint": "remaining activity", "value": "92% and 83%"}
{"SMILES": "Nc1ncc(-c2cc(-c3cnn(CC(F)(F)F)c3)ncc2F)nc1C(=O)NC1CNCC(F)C1 (stereo not shown)", "test": "enzyme activity", "conditions": "1 µM", "scale": "relative to: DMSO control", "endpoint": "remaining activity", "value": "130%"}
{"SMILES": "C=CC(=O)N1CCCC(n2c(=O)c3ncccc3n(Cc3ccc(Oc4ccccc4)cc3)c2=O)C1 (stereo not shown)", "test": "cell-free assay, competition with immobilised ligand", "conditions": "1 µM", "endpoint": "remaining binding", "value": "100%"}
{"SMILES": "COc1cc(Nc2nccc(-c3cnn4nc(OC)ccc34)n2)cc(C(F)(F)F)c1", "test": "binding, competition with immobilised ligand", "conditions": "1 µM", "endpoint": "remaining binding", "value": "88%"}
{"note": "Some of these lines once more:"}
{"SMILES": "CCN1CCN(Cc2ccc(C(=O)Nc3ccc(C)c(NCc4cnc5[nH]ccc5c4OC)c3)cc2C(F)(F)F)CC1", "test": "binding, competition with immobilised ligand", "conditions": "1 µM", "endpoint": "remaining binding", "value": "82%"}
{"SMILES": "O=C=[N][Ru-4]123([n]4c5ccc(O)cc5c5c6c(c7cc(F)c[n+]1c7c54)C(=O)NC6=O)[S+]1CC[S+]2CC[S+]3CC1 (stereo not shown)", "test": "enzyme activity", "conditions": "100 nM, human enzyme, together with: 10 µM ATP", "scale": "relative to: untreated", "endpoint": "remaining activity", "value": "21%"}
{"SMILES": "O=C(Cc1ccc(OCc2ccccc2)cc1)NC1(C(=O)O)CCN(C(=O)c2ccc(-c3cccc(Cl)c3)cc2)CC1", "test": "enzyme activity, inhibitor", "conditions": "10 µM", "endpoint": "activity vs control", "value": "101%"}
